Results collected from several papers.
Each line is one published result; not all experiments were run side by side. Numbers after ± are the reported error.

SMILES	assay	test system	conditions	how to read	quantity	result
CN(C)C(CNC(=O)Nc1cc(C(F)(F)F)ccc1N1CCOCC1)c1ccncc1 (centres unmarked)	–	mouse, serum	intraperitoneal, 120 mg/kg single dose	–	serum anion gap	23 mmol/L
Cn1cc(-c2cccc(CN3CCC4(CC3)COc3c4ccc4c3CN([C@H]3CCC(=O)NC3=O)C4=O)c2)cn1	–	mouse Crbn I391V, spleen	oral, 30 mg/kg, 6 h	–	tissue concentration	1930 ng/g
CCCCCCCCCCCCC(=O)O.O=C1CCCC2C3CCCN4CCCC(CN12)C34 (centres unmarked)	–	water	concentration not given, 308.15 K	–	critical micelle concentration	0.00251 mol/kg
COc1cc2c3c(c4cc(OC)c(OC)c(OC)c4c2cc1OC)CC1CCCCN1C3 (centres unmarked)	–	swine cells	24 (unit not given)	–	CC50	48.3 ± 3.07 µM
CCCC[C@H]1C(=O)N(C)[C@@H](CCCC)C(=O)N[C@@H](CCCNC(=O)CN2CCN(CC(=O)O)CCN(CC(=O)O)CCN(CC(=O)O)CC2)C(=O)N[C@H](C(=O)NCC(N)=O)CSCC(=O)N[C@@H](Cc2ccc(O)cc2)C(=O)N(C)[C@@H](C)C(=O)N[C@@H](CC(N)=O)C(=O)N2CCC[C@H]2C(=O)N[C@@H](Cc2c[nH]cn2)C(=O)N[C@@H](CC(C)C)C(=O)N(C)CC(=O)N[C@@H](Cc2c[nH]c3ccccc23)C(=O)N[C@@H](CO)C(=O)N[C@@H](Cc2c[nH]c3ccccc23)C(=O)N1C [gallium-68 labelled]	biodistribution	NOD/SCID mice, CHO-hPD-L1 xenograft, CHO-hPD-L1 tumour	60 min post injection	–	tumour uptake	20.1 ± 2.6 %ID/g
CSCC[C@@H]1NC(=O)[C@@H]2CSSC[C@H](NC(=O)[C@H](CO)NC(=O)[C@H](C)N)C(=O)N[C@@H](CCCNC(=N)N)C(=O)N[C@@H]([C@@H](C)O)C(=O)N3CCC[C@H]3C(=O)N[C@@H](CCCCN)C(=O)N[C@@H](CC(=O)O)C(=O)N[C@H]3CSSC[C@H](NC(=O)[C@H](CCCCN)NC(=O)[C@H](CCCNC(=N)N)NC(=O)[C@H](CC(N)=O)NC1=O)C(=O)N[C@@H](CCCCN)C(=O)N[C@H]1CSSC[C@H](NC(=O)[C@@H]4CCCN4C(=O)[C@H](CC(=O)O)NC(=O)[C@H](C)NC3=O)C(=O)N[C@@H](C)C(=O)N[C@@H](CCCCN)C(=O)N[C@@H](CCC(=O)O)C(=O)N[C@@H]([C@@H](C)O)C(=O)NCC(=O)N[C@@H](CSSC[C@@H](C(N)=O)NC(=O)[C@H](CCCNC(=N)N)NC(=O)[C@H](CC(N)=O)NC1=O)C(=O)N1CCC[C@H]1C(=O)N[C@@H](Cc1ccc(O)cc1)C(=O)NCC(=O)N[C@@H](CCCCN)C(=O)N2	–	DA rat, pristane-induced arthritis, serum	subcutaneous, 0.1 mg/kg once weekly, end of 21-day trial	–	LDH	480 U/L
CC(C)[C@H](NC(=O)CNC(=O)[C@H](CCC(N)=O)NC(=O)[C@H](C)N)C(=O)O	–	healthy human	intravenous, 30 mg/kg single dose	baseline: subjects	subjects with adverse events	16.7%
COC(=O)C[C@](O)(CCCC(C)(C)OC(C)=O)C(=O)O[C@@H]1C(OC)=C[C@]23CCCN2CCc2cc4c(cc2[C@H]13)OCO4	–	CD1 mouse, heart	oral, 1 mg/kg, 24 h, below quantification limit 1.00 ng/mL	–	tissue concentration	not detected
CC(CCC(=O)NCC(=O)O)C1CCC2C3CCC4CC(OC5OC(C(=O)O)C(O)C(O)C5O)CCC4(C)C3CC(O)C12C (centres unmarked)	–	human, SLCO1B1 *14/*15, plasma	geometric mean, sex-adjusted	–	plasma concentration	65.4 ng/mL
CC(C)[C@H](NC(=O)CNC(=O)[C@H](CCC(N)=O)NC(=O)[C@H](C)N)C(=O)O	–	healthy male volunteers	intravenous, 45 mg/kg/h, 2 h, together with: LPS 2 ng/kg	–	subjects with mild AE	25%
CC[C@H](C)[C@H](NC(=O)CN)C(=O)N[C@@H](CCCNC(=N)N)C(=O)N[C@@H](CCCCN)C(=O)N[C@@H](Cc1c[nH]c2ccccc12)C(=O)N[C@@H](Cc1ccccc1)C(=O)N[C@@H](CCCCN)C(=O)N[C@@H](CCCCN)C(=O)N[C@@H](C)C(=O)N[C@@H](C)C(=O)N[C@@H](Cc1c[nH]cn1)C(=O)N[C@H](C(=O)NCC(=O)N[C@@H](CCCCN)C(=O)N[C@@H](CCCCN)C(=O)N[C@H](C(=O)NCC(=O)N[C@@H](CCCCN)C(=O)N[C@H](C(=O)N[C@@H](C)C(=O)N[C@@H](CC(C)C)C(=O)N[C@@H](CC(N)=O)C(=O)N[C@@H](C)C(=O)N[C@@H](Cc1ccc(O)cc1)C(=O)N[C@@H](CC(C)C)C(N)=O)C(C)C)C(C)C)C(C)C	–	zebrafish embryos	1 h, 4, 28, 52 hpf	–	acute toxic concentration	5 to 25 µg/mL
COC[C@@H](NC(C)=O)C(=O)NCc1ccc(-c2ccc(Cl)cc2)cc1	MES seizure	Sprague-Dawley rat male	oral	baseline: TD50 over ED50	protective index	~78
CC(C)C[C@@H](N)C(=O)NCC(=O)N[C@H](C)C(=O)N[C@H](CO)C(=O)N[C@H](Cc1c[nH]c2ccccc12)C(=O)N[C@H](Cc1c[nH]cn1)C(=O)N[C@H](CCCNC(=N)N)C(=O)N1CCC[C@@H]1C(=O)N[C@H](CC(=O)O)C(=O)N[C@H](CCCCN)C(=O)N[C@H](CS)C(=O)N[C@H](CS)C(=O)N[C@H](CC(C)C)C(=O)NCC(=O)N[C@H](Cc1ccc(O)cc1)C(=O)N[C@H](CCC(N)=O)C(=O)N[C@H](CCCCN)C(=O)N[C@H](CCCNC(=N)N)C(=O)N1CCC[C@@H]1C(=O)N[C@H](CC(C)C)C(=O)N1CCC[C@@H]1C(N)=O	LC-MS/MS	rat plasma	25 ng/mL, 30 days, -80 °C, storage	–	measured concentration	24.8 ± 3.2 ng/mL
COc1cc(NC(=O)C(=O)c2c(C)n(Cc3ccc(Cl)cc3)c3ccc(C)cc23)ccn1	–	cynomolgus monkey, plasma	oral, 10 mg/kg	–	AUC	3260 ng·h/mL
C[C@H]1N=C(c2ccccc2F)c2cc(Br)ccc2-n2cnc(C(=O)OC3O[C@H](C(=O)O)[C@@H](O)[C@H](O)[C@H]3O)c21 (some centres unmarked)	LC-MS/MS	Swiss Webster mouse, female, urine	intraperitoneal, 750 µg parent drug, 0 to 24 h	–	cumulative excretion	2.8 ± 1.2%
CC1=CC=c2ccc3c4c2[N]1[Re](=[C]=O)(=[C]=O)(=[C]=O)([C]#[N+]c1cc(C)cc(C)c1)[N]4C(C)=CC=3.O=S(=O)([O-])C(F)(F)F	–	PBS, up to 1% DMSO	pH 7.4, air-equilibrated	–	emission maximum	504 nm
O=c1cc(-c2ccccc2)oc2c(Br)c(O)c(O)c(O)c12	–	C57BL/6 mouse, plasma	intravenous, 10 mg/kg	–	time to fall to EC99	~1 h
CC[C@H](C)C(=O)N1CCC(NC(=O)Nc2ccc(OC(F)(F)F)c(F)c2)CC1	–	healthy volunteers	oral, 8 mg single tablet, fasted and fed states	–	tolerability	not toxic
C=CC1CN2CCC1CC2C(O)c1c(-c2ccc(N=Nc3ccccc3)cc2)cnc2ccc(OC)cc12 (centres unmarked)	–	–	480 nm irradiation	–	photoisomerization quantum yield	0.32
O=C(Oc1nsnc1N1CCOCC1)c1ccccc1	–	DMSO	concentration not given, 10 days	–	hydrolysis	~50%
O=C(O)CCC(NP(=O)(O)OCCC[C@@H](NC(=O)CCC(NC(=O)CCCCCNC(=O)CCCCCNC(=O)c1ccc([18F])cc1)C(=O)O)C(=O)O)C(=O)O (some centres unmarked)	radioactivity biodistribution	mouse, CWR22Rv1 xenograft, kidney	2 h	–	kidney uptake	7.13 %ID/g
CC(C)[C@@H]1NC(=O)[C@H](Cc2ccccc2)NC(=O)[C@H](Cc2ccc(O)cc2)NC(=O)CCSSC[C@@H](C(=O)N2CCC[C@H]2C(=O)N[C@H](CCCNC(=N)N)C(=O)NCC(N)=O)NC(=O)[C@H](CCC(N)=O)NC1=O	–	Wistar rat, blood	intravenous, 10 µg/kg single dose, 72 h	–	ALT	19.6 ± 3.1 IU/L
COc1cc2ccnc(Cc3ccc(O[11CH3])c(OC)c3)c2cc1OC	–	Sprague-Dawley rat, brain stem	intravenous, 5 min	–	tissue uptake	0.183 ± 0.028 %ID/g
COc1ccc(NC(=O)Cn2c(=O)c3ccccc3n(CC(=O)Nc3cc([125I])c(OC)cc3OC)c2=O)cc1	–	rat, muscle	intravenous, 5 min	–	tracer uptake	0.12 %ID/g
CC[C@@H](C)[C@@H](NC(=O)[C@@H](C)NC(=O)[C@@H](CCCCN)NC(=O)[C@@H](CC(C)C)NC(=O)[C@@H](C)NC(=O)[C@H](NC(=O)[C@@H](Cc1c[nH]cn1)NC(=O)[C@@H](CC(C)C)NC(=O)[C@H](NC(=O)[C@H](NC(=O)[C@@H](CCCCN)NC(=O)[C@@H](CCCCN)NC(=O)[C@@H](C)NC(=O)[C@@H](CO)NC(=O)[C@@H](CCCCN)NC(=O)[C@@H](Cc1ccccc1)NC(=O)[C@H](NC(=O)[C@@H](CCCCN)NC(=O)[C@@H](CC(C)C)NC(=O)[C@@H](Cc1ccccc1)NC(=O)[C@@H](CO)NC(=O)[C@@H](CCCCN)NC(=O)[C@@H](Cc1c[nH]c2ccccc12)NC(=O)[C@@H](CCCCN)NC(C)=O)[C@H](C)O)[C@H](C)O)C(C)C)[C@H](C)O)C(=O)N[C@H](CO)C(=O)N[C@H](CO)C(N)=O	circular dichroism at 222 nm	benign buffer	pH 7.0, 5 °C	–	mean residue ellipticity	1150 deg cm2/dmol
CCN(Cc1ccccc1)C(=O)CCc1nc(CN2CCN(C(=O)Cc3ccc(OC)c(OC)c3)CC2)no1	–	rat, plasma	intravenous, 1 mg/kg, 1 h	–	concentration	6.05 ng/mL
O=C(c1ccc(F)cc1)C1CCN(C2Cc3c(cccc3OCC[18F])CC2O)CC1 (single isomer, unassigned; (-))	–	rat, brain	2 h	–	tracer uptake	0.56 %ID/g
[2H]C([2H])([2H])C([2H])([2H])C([2H])([2H])OC(C(=O)OC1CCNCC1)(c1ccccc1)c1ccccc1	refers to: boredom	healthy Japanese male	oral, 10 mg, 16 days, multiple ascending dose	–	adverse drug reactions	0%
C/C(=N\OCCCN1CCCCC1)c1ccc(C(F)(F)F)cc1	–	liver microsomes	–	baseline: human over mouse	metabolic stability ratio	~3 fold

Repeated from above:
SMILES	assay	test system	conditions	how to read	quantity	result
CC[C@H](C)[C@H](NC(=O)CN)C(=O)N[C@@H](CCCNC(=N)N)C(=O)N[C@@H](CCCCN)C(=O)N[C@@H](Cc1c[nH]c2ccccc12)C(=O)N[C@@H](Cc1ccccc1)C(=O)N[C@@H](CCCCN)C(=O)N[C@@H](CCCCN)C(=O)N[C@@H](C)C(=O)N[C@@H](C)C(=O)N[C@@H](Cc1c[nH]cn1)C(=O)N[C@H](C(=O)NCC(=O)N[C@@H](CCCCN)C(=O)N[C@@H](CCCCN)C(=O)N[C@H](C(=O)NCC(=O)N[C@@H](CCCCN)C(=O)N[C@H](C(=O)N[C@@H](C)C(=O)N[C@@H](CC(C)C)C(=O)N[C@@H](CC(N)=O)C(=O)N[C@@H](C)C(=O)N[C@@H](Cc1ccc(O)cc1)C(=O)N[C@@H](CC(C)C)C(N)=O)C(C)C)C(C)C)C(C)C	–	zebrafish embryos	1 h, 4, 28, 52 hpf	–	acute toxic concentration	5 to 25 µg/mL
O=C(O)CCC(NP(=O)(O)OCCC[C@@H](NC(=O)CCC(NC(=O)CCCCCNC(=O)CCCCCNC(=O)c1ccc([18F])cc1)C(=O)O)C(=O)O)C(=O)O (some centres unmarked)	radioactivity biodistribution	mouse, CWR22Rv1 xenograft, kidney	2 h	–	kidney uptake	7.13 %ID/g
